Results gathered from unrelated publications.
Positions count from the first letter of the parent shown. ± gives the spread as reported.
P1: BICD2-miniTurboID C-terminus (Homo sapiens); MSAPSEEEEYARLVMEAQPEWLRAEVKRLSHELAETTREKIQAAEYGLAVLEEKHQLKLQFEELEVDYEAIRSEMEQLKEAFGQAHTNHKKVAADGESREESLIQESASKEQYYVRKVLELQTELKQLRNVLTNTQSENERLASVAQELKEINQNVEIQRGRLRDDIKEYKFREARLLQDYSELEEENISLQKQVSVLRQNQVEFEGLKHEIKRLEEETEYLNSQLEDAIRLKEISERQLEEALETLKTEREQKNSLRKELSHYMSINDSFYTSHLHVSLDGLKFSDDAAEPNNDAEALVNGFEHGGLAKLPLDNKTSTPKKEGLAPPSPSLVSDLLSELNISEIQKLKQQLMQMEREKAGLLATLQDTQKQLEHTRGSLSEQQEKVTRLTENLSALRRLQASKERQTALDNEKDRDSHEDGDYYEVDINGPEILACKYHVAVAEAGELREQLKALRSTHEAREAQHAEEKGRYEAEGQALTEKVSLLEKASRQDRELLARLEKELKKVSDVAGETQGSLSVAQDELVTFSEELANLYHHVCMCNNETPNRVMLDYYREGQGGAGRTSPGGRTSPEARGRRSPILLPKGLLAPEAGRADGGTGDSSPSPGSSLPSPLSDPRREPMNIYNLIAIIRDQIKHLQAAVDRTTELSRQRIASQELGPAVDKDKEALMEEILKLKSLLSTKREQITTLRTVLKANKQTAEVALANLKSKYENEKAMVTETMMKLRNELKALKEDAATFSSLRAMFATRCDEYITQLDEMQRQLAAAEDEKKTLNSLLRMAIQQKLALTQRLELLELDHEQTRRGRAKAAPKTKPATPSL
UniProt G5EC86, sequence (whole entry, looked up): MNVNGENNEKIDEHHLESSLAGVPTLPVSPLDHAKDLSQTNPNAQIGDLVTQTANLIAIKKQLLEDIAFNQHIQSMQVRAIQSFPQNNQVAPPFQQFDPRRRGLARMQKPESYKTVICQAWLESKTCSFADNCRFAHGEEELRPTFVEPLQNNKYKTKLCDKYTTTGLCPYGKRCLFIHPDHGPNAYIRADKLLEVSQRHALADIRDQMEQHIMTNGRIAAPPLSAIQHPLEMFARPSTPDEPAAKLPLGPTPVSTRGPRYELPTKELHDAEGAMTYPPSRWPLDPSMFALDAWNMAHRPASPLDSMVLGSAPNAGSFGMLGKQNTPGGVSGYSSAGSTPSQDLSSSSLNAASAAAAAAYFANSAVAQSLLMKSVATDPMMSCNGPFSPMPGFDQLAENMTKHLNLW
UniProt Q15020, sequence (whole entry, looked up): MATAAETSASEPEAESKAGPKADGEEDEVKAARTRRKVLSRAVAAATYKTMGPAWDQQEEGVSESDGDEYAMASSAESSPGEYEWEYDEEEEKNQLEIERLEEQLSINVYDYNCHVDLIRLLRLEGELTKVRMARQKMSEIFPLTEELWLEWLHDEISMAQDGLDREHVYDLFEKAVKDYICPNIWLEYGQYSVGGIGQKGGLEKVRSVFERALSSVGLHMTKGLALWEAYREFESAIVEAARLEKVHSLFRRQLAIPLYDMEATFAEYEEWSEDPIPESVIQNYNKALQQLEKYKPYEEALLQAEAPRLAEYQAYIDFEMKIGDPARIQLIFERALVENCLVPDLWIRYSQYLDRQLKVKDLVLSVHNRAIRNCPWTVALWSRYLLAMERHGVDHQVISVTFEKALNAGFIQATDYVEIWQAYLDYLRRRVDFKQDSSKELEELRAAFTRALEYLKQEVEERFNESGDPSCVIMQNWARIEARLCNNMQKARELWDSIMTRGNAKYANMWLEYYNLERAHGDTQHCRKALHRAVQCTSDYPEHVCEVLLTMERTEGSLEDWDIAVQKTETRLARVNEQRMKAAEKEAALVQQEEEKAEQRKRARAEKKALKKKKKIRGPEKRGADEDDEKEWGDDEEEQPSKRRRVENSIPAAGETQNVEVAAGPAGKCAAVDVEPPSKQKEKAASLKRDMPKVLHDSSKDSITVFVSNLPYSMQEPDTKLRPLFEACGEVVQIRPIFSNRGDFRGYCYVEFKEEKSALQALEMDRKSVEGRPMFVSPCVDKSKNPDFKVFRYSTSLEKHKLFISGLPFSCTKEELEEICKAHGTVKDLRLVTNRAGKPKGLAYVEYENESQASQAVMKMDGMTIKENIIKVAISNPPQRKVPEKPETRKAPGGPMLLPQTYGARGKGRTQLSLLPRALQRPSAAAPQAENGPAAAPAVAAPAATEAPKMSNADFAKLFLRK

| Substance | tested on | test | test system | setting | scale | endpoint | value |
| --- | --- | --- | --- | --- | --- | --- | --- |
| P1 N188T | VPS41 (Homo sapiens) | proximity biotinylation, western blot |  | 500 µM, 40 minutes, read off a plot | baseline: unchanged protein, higher = more binding | relative binding | 0.68 |
| UGGAA (ssRNA) | SART3 697-786 (Homo sapiens, UniProt Q15020) | ITC | RNA |  |  | binding | no binding |
| CAUUCUACGUUAUUAAUAAUAAAUAAUAAUAAUAAUAAUAAUCUGAAUAGCG (ssRNA) | oma-1 1-182 (Caenorhabditis elegans, UniProt G5EC86) | EMSA | RNA | together with: Zn2+ |  | Kd | 21 ± 1 nM |
| ACTAGTACGCGGGTAGTGAAAAATCCCCAAATTGCCCCCA (dsDNA) | Abscisic stress-ripening protein full length assumed (Triticum aestivum, UniProt A0A3B6JHN4) | EMSA | double-stranded DNA, one strand shown |  |  | binding | binds |
| ACCCAAAACGTTGACCAAAGTTAACT (dsDNA) | WRKY6 full length assumed (Nicotiana attenuata, UniProt Q5QJ44) | EMSA | double-stranded DNA, one strand shown |  |  | binding | binds |
| UUAUUAUUUGUU (ssRNA) | oma-1 110-182 (Caenorhabditis elegans, UniProt G5EC86) | EMSA | RNA | together with: Zn2+ |  | binding | no binding |
